Experimental data from different studies.
Compare with care: the assays were run in different laboratories. Values joined by “and” are separate records of one study, mostly repeats; a detail may differ. ± marks the error that the study gave. ≈ marks a conversion by molar mass, not a printed value.
CYP1A2: Cytochrome P450 1A2 (CYP1A2, Homo sapiens, UniProt P05177)
cyp121: Mycocyclosin synthase (cyp121, Mycobacterium tuberculosis, UniProt P9WPP7)

Amino acid sequences for entries named in this document (tags omitted). Residues count along the entry.
UniProt P05177, whole entry: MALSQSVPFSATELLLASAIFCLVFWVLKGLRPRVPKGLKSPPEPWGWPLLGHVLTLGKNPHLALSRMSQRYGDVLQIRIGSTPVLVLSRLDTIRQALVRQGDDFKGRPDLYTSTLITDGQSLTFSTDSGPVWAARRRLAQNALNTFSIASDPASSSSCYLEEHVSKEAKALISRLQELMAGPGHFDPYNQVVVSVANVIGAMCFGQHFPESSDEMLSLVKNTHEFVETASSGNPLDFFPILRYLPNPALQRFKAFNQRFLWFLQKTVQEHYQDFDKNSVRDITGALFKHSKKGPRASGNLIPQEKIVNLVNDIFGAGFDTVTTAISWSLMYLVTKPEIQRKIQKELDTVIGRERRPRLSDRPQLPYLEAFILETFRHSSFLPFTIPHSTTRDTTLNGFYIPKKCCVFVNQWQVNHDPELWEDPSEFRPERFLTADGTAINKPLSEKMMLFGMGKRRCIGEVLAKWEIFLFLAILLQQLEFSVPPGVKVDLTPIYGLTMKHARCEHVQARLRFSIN
UniProt P9WPP7, whole entry: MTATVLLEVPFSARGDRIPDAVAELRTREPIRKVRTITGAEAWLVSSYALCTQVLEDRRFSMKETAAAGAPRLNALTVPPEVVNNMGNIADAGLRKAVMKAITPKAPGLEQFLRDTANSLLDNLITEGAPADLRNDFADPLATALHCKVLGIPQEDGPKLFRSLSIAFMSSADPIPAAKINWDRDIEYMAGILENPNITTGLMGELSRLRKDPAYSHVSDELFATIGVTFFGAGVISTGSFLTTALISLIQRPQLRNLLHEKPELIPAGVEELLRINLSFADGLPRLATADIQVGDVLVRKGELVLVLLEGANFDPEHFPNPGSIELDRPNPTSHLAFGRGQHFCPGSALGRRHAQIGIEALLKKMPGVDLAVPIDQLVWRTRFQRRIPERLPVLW
UniProt P18089, whole entry: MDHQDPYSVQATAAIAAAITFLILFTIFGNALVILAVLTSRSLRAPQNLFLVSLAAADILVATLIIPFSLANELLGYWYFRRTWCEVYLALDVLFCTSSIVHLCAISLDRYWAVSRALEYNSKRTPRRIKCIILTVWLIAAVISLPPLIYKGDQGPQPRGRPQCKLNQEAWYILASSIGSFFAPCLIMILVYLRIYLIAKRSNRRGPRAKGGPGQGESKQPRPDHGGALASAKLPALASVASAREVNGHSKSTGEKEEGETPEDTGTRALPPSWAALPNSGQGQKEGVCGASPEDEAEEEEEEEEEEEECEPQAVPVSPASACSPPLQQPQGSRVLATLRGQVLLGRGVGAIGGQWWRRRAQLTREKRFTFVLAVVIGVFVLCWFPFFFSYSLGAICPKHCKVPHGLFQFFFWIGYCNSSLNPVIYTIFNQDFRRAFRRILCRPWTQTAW
UniProt O15245, whole entry G465R: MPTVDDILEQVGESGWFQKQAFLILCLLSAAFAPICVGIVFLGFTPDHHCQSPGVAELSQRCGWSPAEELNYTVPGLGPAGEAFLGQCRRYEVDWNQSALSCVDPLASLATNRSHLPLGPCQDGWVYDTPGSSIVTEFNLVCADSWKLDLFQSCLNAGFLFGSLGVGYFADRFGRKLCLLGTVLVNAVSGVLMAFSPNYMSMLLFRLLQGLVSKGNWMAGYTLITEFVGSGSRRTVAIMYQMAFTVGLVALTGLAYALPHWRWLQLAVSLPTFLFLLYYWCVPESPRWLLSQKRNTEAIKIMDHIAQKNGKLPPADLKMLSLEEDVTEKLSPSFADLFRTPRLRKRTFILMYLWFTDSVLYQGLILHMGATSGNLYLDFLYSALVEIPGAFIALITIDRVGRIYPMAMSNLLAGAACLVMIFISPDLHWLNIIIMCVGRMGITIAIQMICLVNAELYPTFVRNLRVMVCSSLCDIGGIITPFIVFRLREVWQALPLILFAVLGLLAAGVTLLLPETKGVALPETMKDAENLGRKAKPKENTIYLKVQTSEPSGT
UniProt P35353, 24-415 limits assumed: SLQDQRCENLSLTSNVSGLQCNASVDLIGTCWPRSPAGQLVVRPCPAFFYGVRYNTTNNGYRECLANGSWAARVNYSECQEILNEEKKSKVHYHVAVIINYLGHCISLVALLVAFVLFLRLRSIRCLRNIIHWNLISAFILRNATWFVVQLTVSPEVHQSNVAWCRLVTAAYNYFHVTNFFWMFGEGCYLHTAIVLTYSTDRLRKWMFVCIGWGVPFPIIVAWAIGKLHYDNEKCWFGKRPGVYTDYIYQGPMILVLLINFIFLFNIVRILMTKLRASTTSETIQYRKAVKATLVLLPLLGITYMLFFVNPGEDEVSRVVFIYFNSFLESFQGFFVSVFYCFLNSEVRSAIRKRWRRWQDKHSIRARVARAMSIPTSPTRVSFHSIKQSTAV
UniProt P41738, 10-853 limits assumed: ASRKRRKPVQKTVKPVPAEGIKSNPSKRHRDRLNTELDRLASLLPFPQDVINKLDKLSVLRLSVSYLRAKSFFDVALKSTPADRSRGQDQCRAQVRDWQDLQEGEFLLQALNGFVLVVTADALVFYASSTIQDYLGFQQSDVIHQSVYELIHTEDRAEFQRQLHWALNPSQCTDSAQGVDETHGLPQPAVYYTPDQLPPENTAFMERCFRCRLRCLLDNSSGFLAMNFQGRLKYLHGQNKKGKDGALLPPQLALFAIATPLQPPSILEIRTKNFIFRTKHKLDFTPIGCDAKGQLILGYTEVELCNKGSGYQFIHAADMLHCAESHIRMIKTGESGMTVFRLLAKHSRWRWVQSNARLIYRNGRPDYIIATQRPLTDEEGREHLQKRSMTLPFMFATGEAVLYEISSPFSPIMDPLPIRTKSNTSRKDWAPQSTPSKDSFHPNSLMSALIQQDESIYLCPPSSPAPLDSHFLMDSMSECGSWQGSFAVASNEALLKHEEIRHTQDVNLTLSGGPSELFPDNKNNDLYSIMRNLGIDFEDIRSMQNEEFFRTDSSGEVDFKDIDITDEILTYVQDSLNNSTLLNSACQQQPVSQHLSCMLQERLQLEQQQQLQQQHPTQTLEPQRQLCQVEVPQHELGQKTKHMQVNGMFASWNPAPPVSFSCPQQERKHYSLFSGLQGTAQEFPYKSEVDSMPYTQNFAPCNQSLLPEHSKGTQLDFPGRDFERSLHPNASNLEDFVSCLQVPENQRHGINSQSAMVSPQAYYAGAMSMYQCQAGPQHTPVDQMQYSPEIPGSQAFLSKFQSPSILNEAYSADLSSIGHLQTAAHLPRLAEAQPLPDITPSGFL

COc1ccc(CN[C@@H]2CO[C@H](C(c3ccccc3)c3ccccc3)C[C@H]2O)cc1  inhibition (Alpha-2B adrenergic receptor (ADRA2B, Homo sapiens, UniProt P18089); radioligand binding; 10 µM, added: [3H]clonidine): 28.5%
CN(C(=O)Cc1ccc(Cl)c(Cl)c1)[C@@H]1CCCC[C@H]1N1CCCCC1  intrinsic clearance (human liver microsomes; 0.5 µM, added: NADPH): 11 mL/min/g
C[C@H](Cc1ccc(O)cc1)NC[C@H](O)c1cc(O)cc(O)c1  Kd (Solute carrier family 22 member 1 (SLC22A1, Homo sapiens, UniProt O15245, G465R); binding, frontal displacement chromatography; immobilized SLC22A1 column; added: [3H]MPP+ marker): 13.4 µM
COc1ccc(S(=O)(=O)N2CCCN(CC(=O)Nc3ccc(OC)cc3OC)CC2)cc1  IC50 (CYP1A2; enzyme inhibition, inhibitor): > 30 µM
Cc1ccc(S(=O)(=O)Nc2cccc(C(=O)NC3CCN(c4ncnc5[nH]cnc45)CC3)c2)cc1Cl  viability (A549-ACE2; 0.2743 µM): 103%
CC(C)C[C@@H](NC(=O)[C@H](NC(=O)[C@H]1CCCN1)[C@H](C)O)C(=O)N[C@H](Cc1c[nH]cn1)C(=O)N[C@@H](C(=O)N[C@H](Cc1c[nH]cn1)C(=O)N[C@H](CC(N)=O)C(=O)N[C@H](CCCNC(=N)N)C(=O)N[C@H](CCCNC(=N)N)C(=O)N[C@H](CCCNC(=N)N)C(=O)N[C@H](CCCNC(=N)N)C(=O)N[C@H](CCCNC(=N)N)C(N)=O)[C@H](C)O  incidence of abnormal EEG (adverse events, phase I single ascending dose; healthy male subjects; 36 mg, grade 1): 50%
COc1ccc(NC(=O)CN2CCCN(S(=O)(=O)c3ccccc3)CC2)c(OC)c1  IC50 (CYP1A2; enzyme inhibition, inhibitor): > 20 µM
O=C(Nc1ccccc1OS(=O)(=O)c1ccc(OC(F)(F)F)cc1)c1cnccn1  viability (1321-N1 astrocytoma; MTT; 100 µM, 24 h; relative to: untreated): 64.2 ± 0.75%
CCC(c1ccc(-c2ccc(OC(F)(F)F)cc2)cc1)n1ccnc1 (stereo not drawn)  Kd (cyp121; binding): 5 ± 0.49 µM
CC1(C)CC[C@]2(C(=O)O)CC[C@]3(C)C(=CC[C@@H]4[C@@]5(C)CC[C@H](OC(=O)NCc6ccccc6)C(C)(C)[C@@H]5CC[C@]43C)[C@@H]2C1  MRT(0-inf) (C57BL/6 mice, brain; intraperitoneal, 85 µmol/kg): 63.2 h
COc1ccc(S(=O)(=O)Nc2cccc(C(=O)NC3CCN(c4ncnc5[nH]cnc45)CC3)c2)cc1  viability (A549-ACE2; 7.407 µM): 102%
NC[C@@H](NC[C@@H]1CCCN1C[C@@H](CO)NC[C@@H](NCCc1ccc(Cl)c(Cl)c1)c1ccccc1)c1ccccc1  IC50 (Klebsiella pneumoniae; bacterial growth; compound alone): > 24 µM
COCCN(CCOC)c1nc(C)nc2c(-c3c(OC)cc([76Br])cc3OC)c(C)nn12  uptake ratio (Corticotropin-releasing factor receptor 1 (Rattus norvegicus, UniProt P35353); ex vivo autoradiography; rat, awake, frontal cortex; intravenous, 1 h; relative to: choroid plexus): 189%
O=C(NC1CCN(c2ncnc3[nH]cnc23)CC1)c1cccc(NS(=O)(=O)c2ccc(Cl)cc2)c1  viability (A549-ACE2; 2.469 µM): 95.6%
CN(C(=O)Cc1ccc(Cl)cc1Cl)[C@@H]1CCCC[C@H]1N1CCCC1  intrinsic clearance (mouse liver microsomes; 0.5 µM, added: NADPH): 4.6 mL/min/g
[11CH3]Nc1ccc(C(=O)C2CCN(C3Cc4ccccc4CC3O)CC2)cc1 (single isomer, unassigned)  uptake (Sprague-Dawley rat, brain; 30 min): 0.272 %ID/g
Cc1ccc(NC(=O)C2CC3CCC2C3)cc1 (stereo not drawn)  IC50 (CYP1A2; enzyme activity, inhibitor): 10.4 µM
COCn1cc(-c2cc([C@@H](C)NC(=O)c3cc(OCCN(C)C)ccc3C)c3ccccc3n2)cn1  viability (Vero E6 cells; 7.812 µM): 103% and 104%
[2H]c1c([2H])c(S(=O)(=O)N2CCC([2H])(C(=O)Nc3ccc4cc(C(=O)O)ccc4c3)CC2)c(C([2H])([2H])[2H])c([2H])c1C([2H])([2H])[2H]  half-life (human liver microsomes; 37 °C): > 4 h
CC(C)[C@H](N)C(=O)N[C@@H](Cc1ccc(O)cc1)C(=O)N[C@@H](Cc1ccc(O)cc1)C(=O)N[C@@H](CCCNC(=N)N)C(=O)O  solubility (Lantus formulation; pH 4): ≥ 1000 µM
CCCCCCCCCCCCNC(=O)N[C@H](C(=O)N[C@H]1/C=C/CCNC(=O)/C=C/[C@H](C)NC1=O)C(C)C  EC50 (Granta bortezomib-resistant; cell viability, CellTiter-Glo; 24 h): 0.202 ± 0.01 µM
O=c1ccn([C@@H]2O[C@H](COP(=O)(O)OP(=O)(O)OP(=O)(O)O)[C@@H](O)[C@]2(F)Br)c(=O)[nH]1  IC50 (Genome polyprotein, NS5B polymerase (Hepatitis C virus genotype 2a, UniProt Q99IB8); polymerase activity, inhibitor; Hepatitis C virus, genotype 2a): 1.2 µM
COc1cccc2c(N3CCC(CCP(=O)(O)O)CC3)ncnc12  half-life (mouse, serum; intravenous and subcutaneous, 10 mg/kg): 0.167 to 0.25 h
O=C(NC1CCCCC1)Oc1ccc(O)c(-c2ccccc2)c1  Cmax ratio (mouse, brain; intraperitoneal, 1 mg/kg; relative to: cpd over URB597): 2 fold
CCc1nc(N)nc(N)c1C#CCc1cc(-c2ccncc2)ccc1OC  MIC (Klebsiella pneumoniae; Alamar Blue broth; ATCC 10031): 1.25 µg/mL (≈ 3.48 µM)
NCCNCCSc1ccccc1  mean residence time (MRT0-inf) (Swiss Albino mouse, female; oral, 400 mg/kg, single dose, non-compartmental): 8.48 h
NC[C@@H](NC[C@@H]1CCCN1C[C@@H](CO)NC[C@@H](NCCC12CC3CC(CC(C3)C1)C2)c1ccccc1)c1ccccc1  IC90 (Klebsiella pneumoniae; bacterial growth; compound alone): > 24 µM
O=c1c(-c2c[nH]c3ccccc23)nccc2c1[nH]c1ccccc12  EC50 (Aryl hydrocarbon receptor (Ahr, Rattus norvegicus, UniProt P41738); reporter gene, activator; rat H4L7.5c2; 6 h): 0.0045 µM
O=C(NC1CCN(c2ncnc3[nH]cnc23)CC1)c1cccc(S(=O)(=O)Nc2ccc(Cl)cc2)c1  viability (A549-ACE2; 2.469 µM): 103%
O=C(NCCNCCO)c1cc2c([nH]c3ccccc32)c(-c2ccc(Cl)c(Cl)c2)n1  kinetic solubility (pH 7.4): 99.9 µM (≈ 44.3 µg/mL)
Cc1ccc2nc(-c3ccc4nc(-c5ccc(NC(=O)c6cccc(Cl)c6)cc5)sc4c3)sc2c1S(=O)(=O)O  solubility (PBS; pH 7.4): 0.12 µg/mL
CCC(c1ccc(-c2ccc(SC)s2)cc1)n1ccnc1 (stereo not drawn)  Kd (cyp121; binding): 4.5 ± 0.88 µM
O=C(NC1CCN(c2ncnc3[nH]cnc23)CC1)c1cccc(NS(=O)(=O)c2ccc([N+](=O)[O-])cc2)c1  viability (A549-ACE2; 0.09145 µM): 107%

Repeated from above:
COc1cccc2c(N3CCC(CCP(=O)(O)O)CC3)ncnc12  half-life (mouse, serum; intravenous and subcutaneous, 10 mg/kg): 0.167 to 0.25 h
COCCN(CCOC)c1nc(C)nc2c(-c3c(OC)cc([76Br])cc3OC)c(C)nn12  uptake ratio (Corticotropin-releasing factor receptor 1 (Rattus norvegicus, UniProt P35353); ex vivo autoradiography; rat, awake, frontal cortex; intravenous, 1 h; relative to: choroid plexus): 189%
CCc1nc(N)nc(N)c1C#CCc1cc(-c2ccncc2)ccc1OC  MIC (Klebsiella pneumoniae; Alamar Blue broth; ATCC 10031): 1.25 µg/mL (≈ 3.48 µM)
C[C@H](Cc1ccc(O)cc1)NC[C@H](O)c1cc(O)cc(O)c1  Kd (Solute carrier family 22 member 1 (SLC22A1, Homo sapiens, UniProt O15245, G465R); binding, frontal displacement chromatography; immobilized SLC22A1 column; added: [3H]MPP+ marker): 13.4 µM
O=c1c(-c2c[nH]c3ccccc23)nccc2c1[nH]c1ccccc12  EC50 (Aryl hydrocarbon receptor (Ahr, Rattus norvegicus, UniProt P41738); reporter gene, activator; rat H4L7.5c2; 6 h): 0.0045 µM
